Measurements of several laboratories.
Protocols differ between the studies behind these lines. Numbers after ± are the reported error.

SMILES	cell line	test	test system	setting	scale	quantity	result
CNC(=O)c1ccccc1Oc1nc(Nc2cc(OC)c(OC)c(OC)c2)ncc1Br	C2C12 myotubes	refers to: 2-deoxyglucose	–	10 µM	–	inhibition of basal glucose uptake	> 50%
COc1cc(CNC(=O)C[C@H](C)CCC=C(C)C)ccc1OCc1cn(-c2ccccc2)nn1	Malme-3M melanoma cells	SRB	–	10 µM, 48 h	–	growth percent	88.8%
Cc1cc(Cl)cc(-c2ccnc3cc(CN4C(=O)C5C(C4=O)C5(C)C)sc23)c1C[C@@H]1CNCCO1 (stereo partly shown)	CHP-212 USP7 V517F knock-in	SRB	–	–	relative to: knock-in over wild type	IC50 ratio	15 to 16 fold
CC(=O)OC[C@H]1O[C@@H](Sc2nc3c4cnn(C(=O)CNc5ccc(C)cc5)c4ncn3n2)[C@H](OC(C)=O)[C@@H](OC(C)=O)[C@@H]1OC(C)=O	HCT cells	annexin V-FITC/PI flow cytometry	–	concentration not given, 48 h	–	necrotic cells	7.09%
CCC(=C(c1ccc(Cl)cc1)c1ccc(OCCN2CCOCC2)cc1)c1ccc(OC)cc1	NCI-60 tumour cell lines	–	–	10 µM, mean over cell lines	–	growth inhibition	6.9%
CCCC[C@H](C)[C@H]1CC[C@H]2/C(=C/C=C3C[C@@H](O)C(C)[C@H](O)C3)CCC[C@]12C (stereo partly shown)	HL-60	cell differentiation, NBT reduction	–	–	relative to: compound over 1α,25-dihydroxyvitamin D3	EC50 ratio	10
CC(=O)Nc1ccc(OC(=O)CCC(=O)[O][Pt-2]23([O]C(=O)CCC(=O)Oc4ccc(NC(C)=O)cc4)([NH2+][C@@H]4CCCC[C@H]4[NH2+]2)[O]C(=O)C(=O)[O]3)cc1	4T1	–	supernatant	concentration not given, 24 h	relative to: untreated	IFN-alpha level	2.1 fold
COCCNCC(=O)N(CCCCN)CC(=O)N(CC(=O)N(CC(=O)N(CCCCN)CC(=O)N[C@@H](CCCCN)C(=O)N[C@H](CCCCN)C(=O)N[C@@H](CCSC)C(=O)NCCCC[C@H](NC(=O)[C@H](CCSC)NC(=O)[C@@H](CCCCN)NC(=O)[C@H](CCCCN)NC(=O)CN(CCCCN)C(=O)CN(C(=O)CN(Cc1ccc2c(c1)OCO2)C(=O)CN(CCCCN)C(=O)CNCCOC)[C@H](C)c1ccccc1)C(N)=O)[C@H](C)c1ccccc1)Cc1ccc2c(c1)OCO2	H358	gene expression decrease, qRT-PCR, refers to: ALDH1A3	–	6 days	–	onset concentration	10 µM
Nc1c(S(=O)(=O)O)cc(Nc2cccc(S(N)(=O)=O)c2)c2c1C(=O)c1ccccc1C2=O	primary mouse articular chondrocytes	real-time PCR, refers to: Phlpp2	–	25 µM	–	mRNA level	decreased
CN(C)c1ccc(/C=C/C(=O)c2ccc(S(=O)(=O)N3CCCCCC3)cc2)cc1[N+](=O)[O-]	patient-derived glioblastoma cells	–	–	1.2 to 10 µM	–	sphere formation	no effect
Cc1c2ccnc(C(=O)N[C@H](C)CN(C)C)c2cc2c3cc(OCCCN4CCN(C)CC4)ccc3n(C)c12	healthy donor iPSCs	RNA-seq	–	100 nM	relative to: vehicle	C9orf72 intron splicing or read counts	no effect
COc1cc(CNC(=O)C[C@H](C)CCC=C(C)C)ccc1OCc1cn(-c2ccc(Cl)cc2Cl)nn1	OVCAR-3 ovarian cancer cells	SRB	–	10 µM, 48 h	–	growth percent	101%
COc1ccc([C@@H]2CC(=O)c3c(O)cc(O[C@@H]4O[C@H](CO[C@@H]5O[C@@H](C)[C@H](O)[C@@H](O)[C@H]5O)[C@@H](O[C@H]5O[C@H](CO)[C@@H](O)[C@H](O)[C@H]5O)[C@H](O)[C@H]4O)cc3O2)cc1O	A549	trypan blue exclusion	–	100 µg/mL, 72 h	–	cell count	17100 ± 334
COc1cc(CNC(=O)C[C@H](C)CCC=C(C)C)ccc1OCc1cn(-c2ccc(Cl)c(Cl)c2)nn1	OVCAR-3 ovarian cancer cells	SRB	–	10 µM, 48 h	–	growth percent	60.1%
O=Cc1c(O)ccc2ccccc12	HUVEC	RNA sequencing, refers to: RAB39B	–	75 µM, 24 h	relative to: DMSO	log2 fold change	3.31
COc1cc(CNC(=O)C[C@H](C)CCC=C(C)C)ccc1OCc1cn(-c2ccc(C#N)cc2)nn1	SW-620	SRB	–	10 µM, 48 h	–	growth percent	71%
CC(C)=CCc1c(O)cc(CO)cc1O	HepG2, palmitic acid-induced insulin resistance	–	–	10.0 µM, 24 h	–	glucose consumption	4.77 ± 0.47 mM
COc1cc(CNC(=O)C[C@H](C)CCC=C(C)C)ccc1OCc1cn(-c2cccc(Cl)c2)nn1	SR leukaemia cells	SRB	–	10 µM, 48 h	–	growth percent	61.4%
O=C(/C=C/c1cccc(S(=O)(=O)Nc2cccc(F)c2)c1)NO	MOPC-315	cell growth	–	24 h	relative to: belinostat	relative potency	0.869

A few entries again:
SMILES	cell line	test	test system	setting	scale	quantity	result
CCC(=C(c1ccc(Cl)cc1)c1ccc(OCCN2CCOCC2)cc1)c1ccc(OC)cc1	NCI-60 tumour cell lines	–	–	10 µM, mean over cell lines	–	growth inhibition	6.9%
COc1cc(CNC(=O)C[C@H](C)CCC=C(C)C)ccc1OCc1cn(-c2ccc(C#N)cc2)nn1	SW-620	SRB	–	10 µM, 48 h	–	growth percent	71%
COc1cc(CNC(=O)C[C@H](C)CCC=C(C)C)ccc1OCc1cn(-c2ccc(Cl)cc2Cl)nn1	OVCAR-3 ovarian cancer cells	SRB	–	10 µM, 48 h	–	growth percent	101%
